Published values collected from several papers.
Parts stem from different laboratories: compare values within a part only.
Chain of UniProt Q8N568 (whole entry, looked up): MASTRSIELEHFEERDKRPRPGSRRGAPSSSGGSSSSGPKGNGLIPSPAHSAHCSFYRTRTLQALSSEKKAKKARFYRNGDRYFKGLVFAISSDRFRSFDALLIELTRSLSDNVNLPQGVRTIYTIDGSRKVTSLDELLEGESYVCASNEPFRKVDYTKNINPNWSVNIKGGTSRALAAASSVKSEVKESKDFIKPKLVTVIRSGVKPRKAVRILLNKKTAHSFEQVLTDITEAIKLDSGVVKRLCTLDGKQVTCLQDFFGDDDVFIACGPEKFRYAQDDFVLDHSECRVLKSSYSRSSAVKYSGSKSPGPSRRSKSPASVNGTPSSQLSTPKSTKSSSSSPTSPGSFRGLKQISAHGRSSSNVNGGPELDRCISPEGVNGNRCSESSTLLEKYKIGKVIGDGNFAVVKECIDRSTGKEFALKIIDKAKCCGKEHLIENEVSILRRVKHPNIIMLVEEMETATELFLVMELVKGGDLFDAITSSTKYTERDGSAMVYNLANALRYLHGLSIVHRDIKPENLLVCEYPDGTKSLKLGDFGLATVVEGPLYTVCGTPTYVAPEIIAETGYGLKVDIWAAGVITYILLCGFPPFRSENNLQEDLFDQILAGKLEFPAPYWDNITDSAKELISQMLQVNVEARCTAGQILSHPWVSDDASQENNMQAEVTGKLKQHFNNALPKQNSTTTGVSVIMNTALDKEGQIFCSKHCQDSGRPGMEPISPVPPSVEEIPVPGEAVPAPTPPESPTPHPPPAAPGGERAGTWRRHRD
Chain of UniProt Q15759 (whole entry, looked up): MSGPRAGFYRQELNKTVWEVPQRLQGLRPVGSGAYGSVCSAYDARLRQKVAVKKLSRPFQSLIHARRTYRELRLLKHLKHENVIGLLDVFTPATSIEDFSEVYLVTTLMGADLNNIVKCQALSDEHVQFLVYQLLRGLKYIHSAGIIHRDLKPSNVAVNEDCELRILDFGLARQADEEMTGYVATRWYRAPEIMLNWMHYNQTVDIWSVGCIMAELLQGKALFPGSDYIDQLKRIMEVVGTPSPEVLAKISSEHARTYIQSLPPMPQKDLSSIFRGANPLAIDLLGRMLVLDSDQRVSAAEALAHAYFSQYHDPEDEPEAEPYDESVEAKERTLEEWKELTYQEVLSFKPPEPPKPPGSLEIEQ
Chain of UniProt O43353 (whole entry, looked up): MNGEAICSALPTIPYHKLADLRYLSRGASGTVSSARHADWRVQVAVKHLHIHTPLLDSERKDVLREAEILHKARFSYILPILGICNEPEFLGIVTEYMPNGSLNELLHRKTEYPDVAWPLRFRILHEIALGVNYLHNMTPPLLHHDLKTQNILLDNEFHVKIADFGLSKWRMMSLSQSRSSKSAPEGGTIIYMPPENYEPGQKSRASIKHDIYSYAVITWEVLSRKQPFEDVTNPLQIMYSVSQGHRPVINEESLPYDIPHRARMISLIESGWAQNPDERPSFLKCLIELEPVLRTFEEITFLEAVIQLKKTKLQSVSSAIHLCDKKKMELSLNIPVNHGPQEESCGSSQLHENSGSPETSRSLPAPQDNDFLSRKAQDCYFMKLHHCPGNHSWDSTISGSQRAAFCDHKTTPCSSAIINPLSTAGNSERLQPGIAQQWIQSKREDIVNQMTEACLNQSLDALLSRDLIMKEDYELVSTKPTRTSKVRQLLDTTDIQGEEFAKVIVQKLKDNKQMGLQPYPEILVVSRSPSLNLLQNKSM
Chain of UniProt Q00532 (whole entry, looked up): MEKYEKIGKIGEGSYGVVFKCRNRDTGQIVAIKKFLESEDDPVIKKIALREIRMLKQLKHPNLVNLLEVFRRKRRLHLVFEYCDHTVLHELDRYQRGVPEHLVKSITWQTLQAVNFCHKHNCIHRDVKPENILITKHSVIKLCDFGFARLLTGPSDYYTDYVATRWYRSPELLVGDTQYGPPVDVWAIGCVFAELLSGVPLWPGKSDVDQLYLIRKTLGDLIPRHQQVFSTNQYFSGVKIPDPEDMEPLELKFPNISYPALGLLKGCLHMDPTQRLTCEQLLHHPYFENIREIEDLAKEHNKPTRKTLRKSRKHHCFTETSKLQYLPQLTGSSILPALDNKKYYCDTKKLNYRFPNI
Chain of UniProt P06493 (whole entry, looked up): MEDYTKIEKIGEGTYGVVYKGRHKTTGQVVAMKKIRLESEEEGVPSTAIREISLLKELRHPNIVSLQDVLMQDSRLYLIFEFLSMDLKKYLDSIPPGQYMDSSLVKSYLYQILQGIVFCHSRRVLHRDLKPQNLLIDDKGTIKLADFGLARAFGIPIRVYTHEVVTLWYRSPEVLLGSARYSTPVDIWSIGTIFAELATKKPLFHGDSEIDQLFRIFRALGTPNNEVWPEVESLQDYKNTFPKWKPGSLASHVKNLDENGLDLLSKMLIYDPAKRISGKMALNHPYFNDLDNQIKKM
Chain of UniProt Q13464 (whole entry, looked up): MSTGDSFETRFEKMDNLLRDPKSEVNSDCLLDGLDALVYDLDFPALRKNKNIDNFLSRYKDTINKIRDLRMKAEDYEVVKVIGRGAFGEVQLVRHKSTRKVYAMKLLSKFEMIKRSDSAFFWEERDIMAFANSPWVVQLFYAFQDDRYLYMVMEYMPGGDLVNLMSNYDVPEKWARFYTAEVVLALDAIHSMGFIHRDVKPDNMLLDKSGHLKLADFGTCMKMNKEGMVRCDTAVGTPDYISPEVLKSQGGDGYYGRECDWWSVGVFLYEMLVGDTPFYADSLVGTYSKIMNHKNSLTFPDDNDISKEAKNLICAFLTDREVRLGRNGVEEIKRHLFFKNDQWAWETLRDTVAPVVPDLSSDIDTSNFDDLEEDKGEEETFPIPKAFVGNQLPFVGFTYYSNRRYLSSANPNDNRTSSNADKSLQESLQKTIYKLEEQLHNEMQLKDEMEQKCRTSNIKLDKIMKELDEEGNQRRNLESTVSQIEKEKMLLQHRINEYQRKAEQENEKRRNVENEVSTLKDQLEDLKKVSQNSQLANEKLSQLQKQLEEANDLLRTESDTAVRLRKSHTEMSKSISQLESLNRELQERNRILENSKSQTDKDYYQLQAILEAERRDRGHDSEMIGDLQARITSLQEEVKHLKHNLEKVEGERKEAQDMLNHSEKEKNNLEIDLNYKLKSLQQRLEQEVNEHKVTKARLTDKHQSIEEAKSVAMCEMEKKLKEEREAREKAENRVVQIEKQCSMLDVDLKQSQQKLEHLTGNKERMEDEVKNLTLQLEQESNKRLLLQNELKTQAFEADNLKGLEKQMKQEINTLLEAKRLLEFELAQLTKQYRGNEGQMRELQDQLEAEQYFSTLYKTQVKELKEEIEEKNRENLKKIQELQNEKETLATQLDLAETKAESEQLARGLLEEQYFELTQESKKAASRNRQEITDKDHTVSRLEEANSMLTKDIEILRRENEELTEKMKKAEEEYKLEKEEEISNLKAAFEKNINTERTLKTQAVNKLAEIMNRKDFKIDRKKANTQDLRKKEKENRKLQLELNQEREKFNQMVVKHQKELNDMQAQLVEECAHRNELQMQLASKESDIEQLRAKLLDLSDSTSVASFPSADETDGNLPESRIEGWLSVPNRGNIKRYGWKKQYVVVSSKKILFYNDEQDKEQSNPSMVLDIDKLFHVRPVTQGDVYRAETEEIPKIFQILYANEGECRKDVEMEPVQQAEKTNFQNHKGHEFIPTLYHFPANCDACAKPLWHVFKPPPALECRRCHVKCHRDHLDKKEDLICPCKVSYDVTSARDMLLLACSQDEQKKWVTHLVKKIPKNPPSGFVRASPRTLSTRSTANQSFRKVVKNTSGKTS
Chain of UniProt Q8N4C8 (whole entry, looked up): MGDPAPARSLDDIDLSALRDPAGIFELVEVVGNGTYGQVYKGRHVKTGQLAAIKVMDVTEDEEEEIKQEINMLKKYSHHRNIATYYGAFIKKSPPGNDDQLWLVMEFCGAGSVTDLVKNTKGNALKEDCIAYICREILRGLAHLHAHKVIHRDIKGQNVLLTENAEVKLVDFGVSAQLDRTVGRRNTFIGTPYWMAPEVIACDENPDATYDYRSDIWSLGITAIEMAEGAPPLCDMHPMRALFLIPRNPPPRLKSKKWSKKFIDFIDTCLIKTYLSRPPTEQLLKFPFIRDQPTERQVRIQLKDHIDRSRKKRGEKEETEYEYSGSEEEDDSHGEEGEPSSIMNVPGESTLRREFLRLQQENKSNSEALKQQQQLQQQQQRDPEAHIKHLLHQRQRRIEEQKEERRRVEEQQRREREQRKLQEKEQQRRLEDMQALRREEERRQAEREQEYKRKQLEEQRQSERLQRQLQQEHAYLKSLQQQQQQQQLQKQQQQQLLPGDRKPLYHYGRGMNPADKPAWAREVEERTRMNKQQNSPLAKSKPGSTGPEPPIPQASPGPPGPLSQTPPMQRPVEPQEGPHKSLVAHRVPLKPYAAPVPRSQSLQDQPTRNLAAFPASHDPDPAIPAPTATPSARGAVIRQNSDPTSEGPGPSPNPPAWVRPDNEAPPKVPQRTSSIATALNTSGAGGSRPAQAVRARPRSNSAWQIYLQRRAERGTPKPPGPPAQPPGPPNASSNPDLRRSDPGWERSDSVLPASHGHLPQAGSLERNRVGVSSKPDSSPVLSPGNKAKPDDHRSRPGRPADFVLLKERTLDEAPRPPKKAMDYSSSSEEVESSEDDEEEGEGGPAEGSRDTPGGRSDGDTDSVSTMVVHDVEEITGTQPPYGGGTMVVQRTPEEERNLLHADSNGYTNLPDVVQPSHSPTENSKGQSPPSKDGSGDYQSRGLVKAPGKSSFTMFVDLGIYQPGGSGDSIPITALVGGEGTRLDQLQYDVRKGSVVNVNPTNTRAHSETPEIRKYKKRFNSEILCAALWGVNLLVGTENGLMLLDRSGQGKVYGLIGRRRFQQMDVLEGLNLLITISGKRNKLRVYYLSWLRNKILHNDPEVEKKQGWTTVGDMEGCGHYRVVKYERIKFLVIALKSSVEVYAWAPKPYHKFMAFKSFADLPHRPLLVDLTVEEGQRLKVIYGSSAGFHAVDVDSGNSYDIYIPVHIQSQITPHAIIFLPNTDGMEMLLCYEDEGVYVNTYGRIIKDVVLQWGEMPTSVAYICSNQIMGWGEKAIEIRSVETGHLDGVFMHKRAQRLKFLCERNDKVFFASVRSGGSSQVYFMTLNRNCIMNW

Series 1
Compound: O=C(Nc1ccccc1)Nc1cccc(Oc2ccc3nccn3n2)c1
Concentration: 1 µM
Endpoint: remaining binding
target = CDK7 (Homo sapiens, UniProt P50613); technique = competitive binding panel; reference = vehicle; value = 100%
target = GRK1 (Homo sapiens, UniProt Q15835); technique = competitive binding panel; reference = vehicle; value = 100%
target = MARK1 (Homo sapiens, UniProt Q9P0L2); technique = competitive binding panel; reference = vehicle; value = 98%
target = NTRK3 (Homo sapiens, UniProt Q16288); technique = competitive binding; notes = TRKC; value = 73%
target = GRK7 (Homo sapiens, UniProt Q8WTQ7); technique = competitive binding panel; reference = vehicle; value = 100%

Series 2
Structure (SMILES): O=S(=O)(NCCNC/C=C/c1ccc(Br)cc1)c1cccc2cnccc12
Read-out: enzyme activity
Action: inhibitor
Concentration: 0.5 µM
Reference: control
Endpoint: remaining activity
target = GRK4 (Homo sapiens, UniProt P32298); value = 95.8%
target = CDC42BPB (Homo sapiens, UniProt Q9Y5S2); value = 99.5%
target = CAMK4 (Homo sapiens, UniProt Q16566); value = 95.2%
target = RPS6KA4 (Homo sapiens, UniProt O75676); value = 38.8%
target = MAPK1 (Homo sapiens, UniProt P28482); value = 108%
target = CLK4 (Homo sapiens, UniProt Q9HAZ1); value = 119%
target = TXK (Homo sapiens, UniProt P42681); value = 86.8%
target = DCLK2 (Homo sapiens, UniProt Q8N568); value = 90.1%
target = CLK3 (Homo sapiens, UniProt P49761); value = 87.6%
target = PAK3 (Homo sapiens, UniProt O75914); value = 103%
target = NEK3 (Homo sapiens, UniProt P51956); value = 94.3%
target = DDR2 (Homo sapiens, UniProt Q16832); value = 93.8%
target = Cyclin-dependent kinase 9, with cyclin K (CDK9, Homo sapiens, UniProt P50750); value = 85.5%
target = MAPK14 (Homo sapiens, UniProt Q16539); value = 105%
target = PNCK (Homo sapiens, UniProt Q6P2M8); value = 100%
target = PRKG2 (Homo sapiens, UniProt Q13237); value = 56.9%
target = Cyclin-dependent kinase 1, with cyclin A (CDK1, Homo sapiens, UniProt P06493); value = 95.3%
target = ROCK1 (Homo sapiens, UniProt Q13464); value = 37.8%
target = KDR (Homo sapiens, UniProt P35968); value = 79.1%
target = MAPK11 (Homo sapiens, UniProt Q15759); value = 87.2%
target = MINK1 (Homo sapiens, UniProt Q8N4C8); value = 91.1%
target = MAP2K1 (Homo sapiens, UniProt Q02750); value = 90.5%
target = MARK4 (Homo sapiens, UniProt Q96L34); value = 94.3%
target = MARK2 (Homo sapiens, UniProt Q7KZI7); value = 89.3%
target = PLK3 (Homo sapiens, UniProt Q9H4B4); value = 98.2%

Series 3
Cell line: A-375
Concentration: 100 µM
Time: 36 h
Endpoint: viability
Structure (SMILES) = Nc1nc2ncc(CNc3ccc(C(=O)N[C@@H](CCC(=O)O)C(=O)O)cc3)nc2c(=O)[nH]1; value = 110%
Structure (SMILES) = CN(C/C=C/C#CC(C)(C)C)Cc1cccc2ccccc12; value = 22.8%
Structure (SMILES) = O=C(/C=C/C=C/c1ccc2c(c1)OCO2)N1CCCCC1; value = 64.8%
Structure (SMILES) = CC(C)NCC(O)COc1ccc(COCCOC(C)C)cc1 (racemic); value = 101%
Structure (SMILES) = CC(C)[C@H](N)C(=O)OCC(CO)OCn1cnc2c(=O)nc(N)[nH]c21 (stereo partly shown); value = 87.3%

Series 4
Cell line: mouse MPNST tumor cells
Technique: high-content nuclear imaging
Measured: cell number
Concentration: 10 µM
Time: 12 h
Notes: mean of 2 replicates
Reference: plate mean
Reading: higher = more cells
Endpoint: nuclei count
Compound = O=S(=O)(c1cccc2cnccc12)N1CCNCC1; value = 3.42 z-score
Compound = COc1cc2ncn(-c3cc(OCc4ccccc4C(F)(F)F)c(C(N)=O)s3)c2cc1OC; value = -2.39 z-score
Compound = Nc1nc(=O)c2c([nH]1)NC[C@@H](CNc1ccc(C(=O)N[C@@H](CCC(=O)O)C(=O)O)cc1)N2C=O; value = -0.0273 z-score
Compound = Cc1cc(OCc2nnc(SC3CCCC3)n2-c2cccnc2)ccc1-c1ccc(S(C)(=O)=O)cc1; value = -6.49 z-score
Compound = CC1c2cccc(O)c2C(O)=C2C(=O)C3(O)C(O)=C(C(N)=O)C(=O)C(N(C)C)C3C(O)C21 (stereo not shown); value = -0.0502 z-score

Series 5
SMILES: CCC(=O)N[C@H]1CC[C@@H](C(=O)N(C)c2ccc(-c3nc4ccccc4o3)cc2)C1
Technique: competition with immobilised ligand
Concentration: 1 µM
Endpoint: remaining binding
target = RIPK2 (Homo sapiens, UniProt O43353); read-out = cell-free assay; value = 100%
target = Tyrosine-protein kinase ABL1, non-phosphorylated (ABL1, Homo sapiens, UniProt P00519, Q252H); read-out = cell-free assay; value = 72%
target = Tyrosine-protein kinase ABL1, non-phosphorylated (ABL1, Homo sapiens, UniProt P00519, F317I); read-out = binding; value = 86%
target = CDKL1 (Homo sapiens, UniProt Q00532); read-out = cell-free assay; value = 95%

Series 6
Organism: Sarcocystis neurona
Read-out: parasite growth
Concentration: 10 µM
Time: 96 h
Notes: first screen
Reference: untreated
Endpoint: log2 fold change
Compound = C/C=C1\[C@H]2C=C(C)C[C@]1(N)c1ccc(=O)[nH]c1C2; value = 0.17
Compound = Nc1ncnc2c1ncn2[C@@H]1O[C@H](CO)[C@@H](O)[C@@H]1O; value = 0.13
Compound = OC(c1cc(C(F)(F)F)nc2c(C(F)(F)F)cccc12)C1CCCCN1 (stereo not shown); value = -0.45
Compound = CC(C(=O)O)c1cccc(C(=O)c2ccccc2)c1 (stereo not shown); value = 0.25
Compound = COc1ccc([C@@H]2Sc3ccccc3N(CCN(C)C)C(=O)[C@@H]2OC(C)=O)cc1; value = 0.0651
Compound = CCOc1cc(N)c(Cl)cc1C(=O)NCC1CN(Cc2ccc(F)cc2)CCO1 (stereo not shown); value = -0.4
Compound = CC12CC3CC(C)(C1)CC(N)(C3)C2; value = 0.23
Compound = CCCC(CCC)C(=O)O; value = 0.3

For quick reference, copied from above (series 2):
target = DDR2 (Homo sapiens, UniProt Q16832); value = 93.8%
target = GRK4 (Homo sapiens, UniProt P32298); value = 95.8%
target = ROCK1 (Homo sapiens, UniProt Q13464); value = 37.8%
